Results gathered from unrelated publications.
Parts stem from different laboratories: compare values within a part only.
Sequence of UniProt O43293 (whole entry, looked up): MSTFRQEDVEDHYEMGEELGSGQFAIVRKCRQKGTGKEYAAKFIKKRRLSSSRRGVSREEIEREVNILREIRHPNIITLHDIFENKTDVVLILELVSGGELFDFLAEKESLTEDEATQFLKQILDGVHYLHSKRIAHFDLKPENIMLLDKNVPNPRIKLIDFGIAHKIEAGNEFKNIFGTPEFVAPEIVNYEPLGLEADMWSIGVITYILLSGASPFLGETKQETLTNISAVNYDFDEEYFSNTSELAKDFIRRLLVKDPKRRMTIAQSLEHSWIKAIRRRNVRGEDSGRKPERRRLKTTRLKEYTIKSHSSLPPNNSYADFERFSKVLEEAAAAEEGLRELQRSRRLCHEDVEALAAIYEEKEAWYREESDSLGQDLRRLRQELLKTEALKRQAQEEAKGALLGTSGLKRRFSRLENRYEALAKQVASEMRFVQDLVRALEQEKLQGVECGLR
Sequence of UniProt P35968 (whole entry, looked up): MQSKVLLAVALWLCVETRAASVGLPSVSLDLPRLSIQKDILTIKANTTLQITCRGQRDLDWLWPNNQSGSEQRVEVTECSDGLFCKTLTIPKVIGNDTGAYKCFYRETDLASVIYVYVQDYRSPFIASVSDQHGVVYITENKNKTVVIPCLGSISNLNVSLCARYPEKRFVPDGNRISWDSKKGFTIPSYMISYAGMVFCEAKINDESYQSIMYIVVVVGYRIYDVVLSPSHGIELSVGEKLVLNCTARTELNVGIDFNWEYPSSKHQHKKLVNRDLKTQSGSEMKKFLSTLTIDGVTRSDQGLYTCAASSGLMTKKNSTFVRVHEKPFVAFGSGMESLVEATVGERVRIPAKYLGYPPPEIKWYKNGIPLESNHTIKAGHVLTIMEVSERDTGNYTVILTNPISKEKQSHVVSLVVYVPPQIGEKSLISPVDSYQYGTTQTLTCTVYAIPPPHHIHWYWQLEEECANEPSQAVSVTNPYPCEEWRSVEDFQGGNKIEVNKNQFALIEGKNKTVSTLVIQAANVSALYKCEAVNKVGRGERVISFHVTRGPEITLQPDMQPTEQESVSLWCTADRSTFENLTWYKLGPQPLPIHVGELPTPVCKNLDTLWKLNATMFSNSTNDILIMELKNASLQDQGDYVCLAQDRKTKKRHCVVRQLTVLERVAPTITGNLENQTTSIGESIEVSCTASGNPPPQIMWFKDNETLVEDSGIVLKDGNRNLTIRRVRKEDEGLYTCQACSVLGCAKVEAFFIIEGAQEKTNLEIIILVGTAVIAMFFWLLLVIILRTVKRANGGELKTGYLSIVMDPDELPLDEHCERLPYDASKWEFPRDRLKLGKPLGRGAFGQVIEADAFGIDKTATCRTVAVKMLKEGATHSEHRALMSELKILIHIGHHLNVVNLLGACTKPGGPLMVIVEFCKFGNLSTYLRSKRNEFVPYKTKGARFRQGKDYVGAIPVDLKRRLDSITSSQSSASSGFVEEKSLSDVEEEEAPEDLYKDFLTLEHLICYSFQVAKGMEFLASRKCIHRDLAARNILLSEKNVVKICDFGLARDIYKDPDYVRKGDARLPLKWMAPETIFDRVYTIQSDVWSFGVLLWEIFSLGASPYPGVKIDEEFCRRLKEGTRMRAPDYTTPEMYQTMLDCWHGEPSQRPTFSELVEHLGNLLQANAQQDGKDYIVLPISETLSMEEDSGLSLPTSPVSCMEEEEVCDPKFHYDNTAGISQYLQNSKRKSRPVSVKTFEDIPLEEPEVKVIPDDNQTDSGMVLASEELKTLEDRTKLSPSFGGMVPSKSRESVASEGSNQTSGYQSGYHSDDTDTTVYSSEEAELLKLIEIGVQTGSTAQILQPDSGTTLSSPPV
Sequence of UniProt P78356 (whole entry, looked up): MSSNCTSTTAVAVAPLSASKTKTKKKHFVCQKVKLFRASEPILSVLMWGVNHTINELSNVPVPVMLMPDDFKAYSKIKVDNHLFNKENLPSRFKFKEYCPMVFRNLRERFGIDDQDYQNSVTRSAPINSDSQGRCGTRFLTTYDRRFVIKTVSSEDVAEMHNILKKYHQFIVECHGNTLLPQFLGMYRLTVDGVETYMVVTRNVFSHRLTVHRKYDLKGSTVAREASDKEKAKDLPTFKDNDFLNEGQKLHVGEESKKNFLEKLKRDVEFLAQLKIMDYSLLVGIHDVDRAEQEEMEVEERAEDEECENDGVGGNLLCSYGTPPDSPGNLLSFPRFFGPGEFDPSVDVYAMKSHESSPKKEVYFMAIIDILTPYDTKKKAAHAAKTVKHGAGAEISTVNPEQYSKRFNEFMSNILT
Sequence of UniProt P11802 (whole entry, looked up): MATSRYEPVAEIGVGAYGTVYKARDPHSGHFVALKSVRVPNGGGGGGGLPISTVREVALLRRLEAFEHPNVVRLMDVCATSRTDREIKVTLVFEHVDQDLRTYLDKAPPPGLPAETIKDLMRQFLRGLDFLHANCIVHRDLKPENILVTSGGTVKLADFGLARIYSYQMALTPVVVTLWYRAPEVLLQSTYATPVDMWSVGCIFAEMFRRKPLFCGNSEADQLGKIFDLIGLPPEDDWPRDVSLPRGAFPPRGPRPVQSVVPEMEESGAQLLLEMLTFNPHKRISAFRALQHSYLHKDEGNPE
Sequence of UniProt O14965 (whole entry, looked up): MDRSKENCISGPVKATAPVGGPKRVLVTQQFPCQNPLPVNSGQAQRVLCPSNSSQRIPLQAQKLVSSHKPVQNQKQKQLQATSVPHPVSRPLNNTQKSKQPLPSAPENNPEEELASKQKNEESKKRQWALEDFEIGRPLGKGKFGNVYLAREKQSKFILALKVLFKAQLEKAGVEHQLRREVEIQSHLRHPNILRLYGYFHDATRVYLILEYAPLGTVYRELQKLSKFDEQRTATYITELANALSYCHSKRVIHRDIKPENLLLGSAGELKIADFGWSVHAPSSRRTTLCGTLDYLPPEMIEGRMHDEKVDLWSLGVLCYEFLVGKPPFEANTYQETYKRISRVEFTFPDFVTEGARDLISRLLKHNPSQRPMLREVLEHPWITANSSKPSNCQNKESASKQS
Sequence of UniProt Q13705 (whole entry, looked up): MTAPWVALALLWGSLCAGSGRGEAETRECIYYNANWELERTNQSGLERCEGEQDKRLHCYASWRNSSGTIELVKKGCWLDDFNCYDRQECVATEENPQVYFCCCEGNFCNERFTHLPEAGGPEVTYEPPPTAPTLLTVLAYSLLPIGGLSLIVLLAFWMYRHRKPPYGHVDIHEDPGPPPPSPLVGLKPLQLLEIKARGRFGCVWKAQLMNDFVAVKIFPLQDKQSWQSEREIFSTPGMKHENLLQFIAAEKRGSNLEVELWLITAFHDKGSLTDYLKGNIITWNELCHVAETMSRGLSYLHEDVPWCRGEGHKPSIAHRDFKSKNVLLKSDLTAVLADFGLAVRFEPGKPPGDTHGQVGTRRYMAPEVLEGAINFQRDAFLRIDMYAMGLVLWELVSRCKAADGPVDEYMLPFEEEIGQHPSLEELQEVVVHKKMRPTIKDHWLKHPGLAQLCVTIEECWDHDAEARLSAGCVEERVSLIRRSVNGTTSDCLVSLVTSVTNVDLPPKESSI
Sequence of UniProt O94921 (whole entry, looked up): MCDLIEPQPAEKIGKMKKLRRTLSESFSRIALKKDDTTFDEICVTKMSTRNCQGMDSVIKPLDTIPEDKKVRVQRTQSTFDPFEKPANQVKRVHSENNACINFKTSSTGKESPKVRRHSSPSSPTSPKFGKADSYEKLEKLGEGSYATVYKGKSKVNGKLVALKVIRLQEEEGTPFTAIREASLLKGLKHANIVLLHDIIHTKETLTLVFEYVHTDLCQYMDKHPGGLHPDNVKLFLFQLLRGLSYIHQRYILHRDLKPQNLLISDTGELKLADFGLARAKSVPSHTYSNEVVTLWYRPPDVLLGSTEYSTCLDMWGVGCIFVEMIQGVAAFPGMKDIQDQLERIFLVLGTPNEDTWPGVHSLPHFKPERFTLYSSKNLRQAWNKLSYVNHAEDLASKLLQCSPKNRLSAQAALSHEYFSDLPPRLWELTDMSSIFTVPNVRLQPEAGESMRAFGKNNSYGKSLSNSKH

Set 1 — concentration: 1 µM
Compound: Cc1noc([C@H]2C[C@@H](c3ccc(C(F)(F)F)cc3)CN(C(=O)N3CCS(=O)(=O)C3)C2)n1
target | test | remaining binding [%]
Cyclin-dependent kinase 4, with cyclin D3 (CDK4, Homo sapiens, UniProt P11802) | cell-free assay, competition with immobilised ligand | 100
CAMK4 (Homo sapiens, UniProt Q16566) | cell-free assay, competition with immobilised ligand | 95
KDR (Homo sapiens, UniProt P35968) | cell-free assay, competition with immobilised ligand | 100
SIK1 (Homo sapiens, UniProt P57059) | competition binding | 100
RIPK4 (Homo sapiens, UniProt P57078) | cell-free assay, competition with immobilised ligand | 68
ACVR2B (Homo sapiens, UniProt Q13705) | binding, competition with immobilised ligand | 100
CDK14 (Homo sapiens, UniProt O94921) | cell-free assay, competition with immobilised ligand | 100
KIT (Homo sapiens, UniProt P10721, D816H) | cell-free assay, competition with immobilised ligand | 100
Aurora kinase A (AURKA, Homo sapiens, UniProt O14965) | cell-free assay, competition with immobilised ligand | 85
FLT3 (Homo sapiens, UniProt P36888, D835V) | cell-free assay, competition with immobilised ligand | 91
WEE2 (Homo sapiens, UniProt P0C1S8) | cell-free assay, competition with immobilised ligand | 100
FER (Homo sapiens, UniProt P16591) | cell-free assay, competition with immobilised ligand | 82
INSRR (Homo sapiens, UniProt P14616) | cell-free assay, competition with immobilised ligand | 100
PRKX (Homo sapiens, UniProt P51817) | cell-free assay, competition with immobilised ligand | 100
DAPK3 (Homo sapiens, UniProt O43293) | cell-free assay, competition with immobilised ligand | 100
PIP4K2B (Homo sapiens, UniProt P78356) | cell-free assay, competition with immobilised ligand | 100
Tyrosine-protein kinase ABL1, phosphorylated (ABL1, Homo sapiens, UniProt P00519, Y253F) | cell-free assay, competition with immobilised ligand | 100
ABL2 (Homo sapiens, UniProt P42684) | cell-free assay, competition with immobilised ligand | 100

Set 2 — effect on: enzyme activity; action: inhibitor; concentration: 0.5 µM; reference: control
Target: Mitogen-activated protein kinase kinase kinase 7 (MAP3K7, Homo sapiens, UniProt O43318)
Sequence of UniProt O43318 (whole entry, looked up): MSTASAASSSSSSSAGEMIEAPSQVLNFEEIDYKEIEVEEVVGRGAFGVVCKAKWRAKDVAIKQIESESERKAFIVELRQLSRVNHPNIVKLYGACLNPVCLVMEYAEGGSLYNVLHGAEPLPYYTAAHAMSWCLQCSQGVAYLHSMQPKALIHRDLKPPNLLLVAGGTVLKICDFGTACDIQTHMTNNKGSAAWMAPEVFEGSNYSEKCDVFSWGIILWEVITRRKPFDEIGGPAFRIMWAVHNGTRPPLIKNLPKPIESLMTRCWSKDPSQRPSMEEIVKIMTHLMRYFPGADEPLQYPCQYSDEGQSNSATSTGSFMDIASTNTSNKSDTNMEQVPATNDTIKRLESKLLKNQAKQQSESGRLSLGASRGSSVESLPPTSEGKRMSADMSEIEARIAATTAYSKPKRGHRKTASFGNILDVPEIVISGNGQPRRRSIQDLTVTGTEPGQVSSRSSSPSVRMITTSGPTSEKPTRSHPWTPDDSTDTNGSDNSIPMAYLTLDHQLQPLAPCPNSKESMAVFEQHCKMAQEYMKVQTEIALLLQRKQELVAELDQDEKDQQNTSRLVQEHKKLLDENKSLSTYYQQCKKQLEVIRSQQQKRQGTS
Compound | remaining activity
COc1ccc2c(c1)c(C1=C(c3c[nH]c4ccccc34)C(=O)NC1=O)cn2CCCN(C)C | 102%
N#Cc1cnc2cnc(NCc3cccnc3)cc2c1Nc1ccc(F)c(Cl)c1 | 89.5%
COc1ccc(COc2ccc(Cc3cnc(N)nc3N)cc2OC)cc1 | 97.9%
Cc1ccc(S(=O)(=O)/C=C/C#N)cc1 | 99.9%
c1ccc(-c2n[nH]c3c2oc2ccccc23)cc1 | 104%
O=C(c1cc2cc(O)ccc2[nH]1)c1cc2cc(O)ccc2[nH]1 | 79.5%
O=C1Nc2ccccc2/C1=C\c1c(Cl)[nH]c2ccccc12 | 99.2%
O=C1NC(=O)c2c1c1c3ccccc3[nH]c1c1[nH]c3cc(Br)ccc3c21 | 91.4%

Set 3 — method: protein binding microarray; form: double-stranded DNA, one strand shown; medium: in vitro; concentration: not given; reference: not given; reading: higher = stronger binding
Target: Histone acetyltransferase KAT6A, winged helix 1, GST fusion (KAT6A, Homo sapiens, UniProt Q92794, residues 1-85)
Notes: 8-mer, flanks averaged, mean of 2 arrays, mostly near background
Construct (chain): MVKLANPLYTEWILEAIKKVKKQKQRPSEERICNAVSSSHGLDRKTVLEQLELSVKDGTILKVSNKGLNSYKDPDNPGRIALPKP
Oligonucleotide | E-score
CTCTACAA | -0.135
AATGATGC | 0.00409
CTCAAGCA | -0.269
TCCTTACA | -0.151
GCCTGAGA | -0.00502
GTATCGAC | 0.151
CGGAAGTC | 0.304
GACGGACA | 0.317

Set 4 — method: protein-binding microarray; form: double-stranded DNA, one strand shown; medium: in vitro; concentration: 2540 nM top; notes: 60-bp whole probe; added: salmon DNA 0.4 mg/ml; reference: random background probes; reading: higher = stronger binding; all sequences stand within: GCCTAGCAC … GTCTTGATTCGCTTGACGCTGCTG
Target: Interferon regulatory factor 3, full length, phosphomimetic (IRF3, Homo sapiens, UniProt Q14653, residues 1-427, S386D/S396D/S398D/S402D/T404D/S405D)
Sequence of UniProt Q14653 (whole entry, unmodified, looked up): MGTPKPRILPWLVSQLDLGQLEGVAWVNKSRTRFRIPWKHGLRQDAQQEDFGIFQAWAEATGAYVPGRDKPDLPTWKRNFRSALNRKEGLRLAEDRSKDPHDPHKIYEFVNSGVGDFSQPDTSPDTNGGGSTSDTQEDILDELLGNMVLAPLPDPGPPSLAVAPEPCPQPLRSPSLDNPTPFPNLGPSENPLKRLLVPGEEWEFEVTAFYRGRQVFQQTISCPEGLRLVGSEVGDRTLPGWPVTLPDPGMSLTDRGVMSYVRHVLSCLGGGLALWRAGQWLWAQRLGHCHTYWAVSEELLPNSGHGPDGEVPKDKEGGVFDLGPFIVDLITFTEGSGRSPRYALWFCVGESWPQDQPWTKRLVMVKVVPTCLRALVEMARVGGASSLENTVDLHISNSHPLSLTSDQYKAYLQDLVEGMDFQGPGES
Oligonucleotide | fitted relative affinity [z-score]
TCAGATATCAGTTTCGATTAGTGCTAG | 4.74
AAGTTTTTCATTTTTTTTCAGTGCTAG | 1.45
GACGGTTTCGTGACTGGGGACGTGCTA | 2.67
TTAGATATCAATATCGATTAGTGCTAG | 0.626
TTAGGACTCGACTTTCGGTTAGTGCTA | 1.19
GTCGAACTGGGGTATCGAGACGTGCTA | 0.051
GAGGATTCCAGTTTCGAGACGTGCTAG | 3.42
GACGCTTTCGGGTTTCGGGACGTGCTA | 3.12

Some of these lines once more (set 1):
target | test | remaining binding [%]
Aurora kinase A (AURKA, Homo sapiens, UniProt O14965) | cell-free assay, competition with immobilised ligand | 85
FER (Homo sapiens, UniProt P16591) | cell-free assay, competition with immobilised ligand | 82
Tyrosine-protein kinase ABL1, phosphorylated (ABL1, Homo sapiens, UniProt P00519, Y253F) | cell-free assay, competition with immobilised ligand | 100
PRKX (Homo sapiens, UniProt P51817) | cell-free assay, competition with immobilised ligand | 100
CDK14 (Homo sapiens, UniProt O94921) | cell-free assay, competition with immobilised ligand | 100
PIP4K2B (Homo sapiens, UniProt P78356) | cell-free assay, competition with immobilised ligand | 100
SIK1 (Homo sapiens, UniProt P57059) | competition binding | 100
